Assay results gathered from unrelated publications.
Parts stem from different laboratories: compare values within a part only. Positions count from the first letter of the parent shown.

Series 1
Target: OGT, full length, His-tagged (human)
Technique: phage display, sequencing
Sample: in vitro
Concentration: 1 µg OGT
Setting: single substitutions, 15-mer displayed peptide, unchanged parent 5.27
Reference: input library
Direction: higher = stronger binding
Quantity: fold enrichment
Starting sequence: peptide; GDFPVMFMPKYSIIY
GDFPVMFMPKYSIIK [Y15K]: 0.626 fold
GDFPVMFMPKYPIIY [S12P]: 7.57 fold
GLFPVMFMPKYSIIY [D2L]: 6.54 fold
GDPPVMFMPKYSIIY [F3P]: 5.62 fold
GDFPVMFPPKYSIIY [M8P]: 3.57 fold
GDFPVMFMPKYRIIY [S12R]: 3.63 fold
GDFPIMFMPKYSIIY [V5I]: 7.21 fold
GDFPVMFMHKYSIIY [P9H]: 8.17 fold
GDFPWMFMPKYSIIY [V5W]: 3.94 fold
GDGPVMFMPKYSIIY [F3G]: 5.01 fold
GDFPVMFMPKVSIIY [Y11V]: 4.21 fold
GDFPVMFMPKYSNIY [I13N]: 0.937 fold
GDFNVMFMPKYSIIY [P4N]: 9.69 fold
KDFPVMFMPKYSIIY [G1K]: 4.94 fold
GDFPVMFMPKSSIIY [Y11S]: 1.07 fold
GKFPVMFMPKYSIIY [D2K]: 7.1 fold
GDFPVMFMPKYSIYY [I14Y]: 1.23 fold
GDFPVMFMPKYSFIY [I13F]: 1.56 fold

Series 2
Target: Histone acetyltransferase KAT6A, winged helix 2, GST fusion (KAT6A, Homo sapiens, UniProt Q92794, residues 85-181)
Technique: protein binding microarray
Molecule type: double-stranded DNA, one strand shown
Sample: in vitro
Concentration: not given
Setting: 8-mer, flanks averaged, mean of 2 arrays, mostly near background
Reference: not given
Direction: higher = stronger binding
Quantity: E-score
Residues (chain): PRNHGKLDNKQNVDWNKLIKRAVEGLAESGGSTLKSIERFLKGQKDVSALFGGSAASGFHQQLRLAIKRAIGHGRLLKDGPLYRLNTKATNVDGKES
CCACTGAC: 0.167
AGTTGAAG: -0.106
ACTTCGCG: 0.0973
ATCCTCGG: 0.0505
TGAAGACA: 0.0774
ACTATAAG: -0.135
AGGATATA: 0.0145
CTCGTACA: -0.0204
CCCTTATC: -0.104
CCGGTCAG: 0.0446
ATGAGGCG: -0.00326
GCGGGAGA: 0.173
ACAATCTG: 0.0693
AGAAAGAG: -0.114
GCATCCAA: -0.0719
AATCAACG: 0.0726
CCGGTGGC: 0.117
GATCTAAC: -0.0121
AGCCAGGG: 0.0302
AACGATAG: -0.108
CGGGCGGC: 0.157

Series 3
Target: RNA binding protein fox-1 homolog 2, RRM domain, GST-SBP tag (RBFOX2, Homo sapiens, UniProt O43251-10, residues 100-194)
Technique: RNA Bind-n-Seq
Molecule type: RNA
Sample: in vitro
Concentration: 365 nM
Setting: natural RNA segment, single round, ends assumed
Reference: no-protein control
Direction: higher = stronger binding
Quantity: RBNS enrichment (R)
Target sequence (chain): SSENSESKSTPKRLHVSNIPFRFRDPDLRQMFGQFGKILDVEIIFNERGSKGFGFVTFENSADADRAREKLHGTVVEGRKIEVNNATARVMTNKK
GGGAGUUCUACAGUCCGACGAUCAGAUCACUGACUUCUCUUUAACUGUCCUGAGCUACAUCACGCCCACAAAUCUGUCUUUCAUACCACUCUAUCUGCCAUUCAUUCUUGUUAAAUGAGGCAUUGUUUUCUUUUGGAAUUCUCGGGUGCCAA: 0.779
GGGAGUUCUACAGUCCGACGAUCCUAUAUUGUAAGCUUUGGUGUUUGUUUAAUUAGCAAUAGGGAUGGUAGGAUUCAAAUGUGUGUCAUUUAGAAGUGGAAGCUAUUAGCACCAAUGACAUAAAUACAUACAAUGGAAUUCUCGGGUGCCAA: 1.33
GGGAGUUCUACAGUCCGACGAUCGAGACACCCACCAUGGGUCUUUGAUGCUAGAUAAGCCUAGAGGGAAGAUAAAGGGGCAGGAUCAAGGCUUUGUUUGAUCAUUGACCUACCCCCCCCCUCAGGUAGAUUCCUGGAAUUCUCGGGUGCCAA: 0.717
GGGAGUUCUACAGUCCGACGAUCGUAUAGGGAGAUGGAUUAAGUUGAUAAUGACAUUUAGGGCAACUUAAGACCUUUGAUCCCAGGUUCUAACUCAAAGAGGCUGACCUUCCCCCAGCUAAGAUAGCAUGAGGUGGAAUUCUCGGGUGCCAA: 8.06
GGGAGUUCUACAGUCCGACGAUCGUGUUUUACUGGAAAAGCUGCAGUUGAUCUCAAAUUGAGCAGCGAGCUUUCAUGCUCAGUUGGAAUCUAAUGAAAUAAAUUCUCUUAGCAUACAUUGUAAAUUUGUAUUGUGGAAUUCUCGGGUGCCAA: 0.267
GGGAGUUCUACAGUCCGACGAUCUCUGGCCCUCGGUGGCUGCACAGAAGGGCUCUUUCUCUCUGCUGAGCUGGGCCCAGCCCCUCCACGUGAUUUCCAGUGAGUGUAAAUAAUUUUAAAUAACCUCUGGCCCUUGGAAUUCUCGGGUGCCAA: 0.312
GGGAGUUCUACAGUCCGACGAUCUUUAAGCUAAAAUGUUACUCCCUGUUUUAGUUUCUGAACUCUGACAGAUUGACAGGGACUUUGCUGGUGUAGUCUUUUUAUAGGUUUUAUAAACCACUUGAGCCUAUAUCUGGAAUUCUCGGGUGCCAA: 0.602
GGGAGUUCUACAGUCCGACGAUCGUAAGCCACACACCUGCCACUUAGCCAGAAUGCCCAGGAUCGCGUUGGUCACUGUUAUUUGCCUACUGCUGGAAGAAGGACAACCGCUGGCAAGGUAGCGUUCCCCAAUCUGGAAUUCUCGGGUGCCAA: 0.429

Series 4
Target: Interferon regulatory factor 3, full length, phosphomimetic (IRF3, Homo sapiens, UniProt Q14653, residues 1-427, S386D/S396D/S398D/S402D/T404D/S405D)
Chain of UniProt Q14653 (whole entry, unmodified, looked up): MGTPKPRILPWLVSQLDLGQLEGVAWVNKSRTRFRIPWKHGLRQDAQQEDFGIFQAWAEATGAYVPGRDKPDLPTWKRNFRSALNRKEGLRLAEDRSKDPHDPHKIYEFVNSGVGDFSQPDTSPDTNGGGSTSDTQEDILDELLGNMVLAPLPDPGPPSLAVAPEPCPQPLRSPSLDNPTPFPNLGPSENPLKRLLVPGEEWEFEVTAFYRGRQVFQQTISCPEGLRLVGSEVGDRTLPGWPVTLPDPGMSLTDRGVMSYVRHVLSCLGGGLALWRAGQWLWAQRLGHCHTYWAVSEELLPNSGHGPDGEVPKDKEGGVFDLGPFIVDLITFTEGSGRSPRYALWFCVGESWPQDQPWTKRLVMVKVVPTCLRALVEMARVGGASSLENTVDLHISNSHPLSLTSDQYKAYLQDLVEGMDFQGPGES
Technique: protein-binding microarray
Molecule type: double-stranded DNA, one strand shown
Sample: in vitro
Concentration: 2540 nM top
Setting: 60-bp whole probe
Together with: salmon DNA 0.4 mg/ml
Reference: random background probes
Direction: higher = stronger binding
Quantity: fitted relative affinity
All sequences stand within: GCCTAGCAC … GTCTTGATTCGCTTGACGCTGCTG
TCGTGGATTGCGACCCCTAGGTGCTAG: -0.811 z-score
TTAGATTTCGGGACTGGATGAGTGCTA: 1.36 z-score
GACGAACTGGGGTATAGAGACGTGCTA: -0.444 z-score
TCAAAATTATCTTTAATACTGTGCTAG: -0.192 z-score
TTAGGCCTCCTACTGCTTTAGTGCTAG: -0.541 z-score
TCATTTTGGTCTTTCTGACTGTGCTAG: 1.7 z-score
TTCTCTAACCTCTCTAATAAAGTGCTA: 1.25 z-score
TTAGGACTGGGTCTAGGTTAGTGCTAG: -1.1 z-score
GACGGTTTCGGACGGGGGACGTGCTAG: 2.84 z-score
TTAGCACTGCTACTGCTTTAGTGCTAG: -0.746 z-score
TACGGTATCGGTATCGGGACGTGCTAG: 4.48 z-score
TAAGATATCGGGTATCGATTAGTGCTA: 0.395 z-score
TTAGGTCTCGGTTTCCGTTAGTGCTAG: 4.11 z-score
TTAGATTTCGCGTTTCGATTAGTGCTA: 1.91 z-score
CCGCTTTTTTTTTTTTTTTTGTGCTAG: 0.426 z-score
TTAGGTATCCTTCTCCCTTAGTGCTAG: 7.18 z-score
TCATATTTAAGGCATCTGACTGTGCTA: 0.391 z-score
TTAGGACTGCTTTTCCTGTAGTGCTAG: -0.018 z-score

Some of these lines once more (series 3):
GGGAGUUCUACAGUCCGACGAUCGUAUAGGGAGAUGGAUUAAGUUGAUAAUGACAUUUAGGGCAACUUAAGACCUUUGAUCCCAGGUUCUAACUCAAAGAGGCUGACCUUCCCCCAGCUAAGAUAGCAUGAGGUGGAAUUCUCGGGUGCCAA: 8.06
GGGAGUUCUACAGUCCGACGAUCGUGUUUUACUGGAAAAGCUGCAGUUGAUCUCAAAUUGAGCAGCGAGCUUUCAUGCUCAGUUGGAAUCUAAUGAAAUAAAUUCUCUUAGCAUACAUUGUAAAUUUGUAUUGUGGAAUUCUCGGGUGCCAA: 0.267
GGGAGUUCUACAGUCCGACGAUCUCUGGCCCUCGGUGGCUGCACAGAAGGGCUCUUUCUCUCUGCUGAGCUGGGCCCAGCCCCUCCACGUGAUUUCCAGUGAGUGUAAAUAAUUUUAAAUAACCUCUGGCCCUUGGAAUUCUCGGGUGCCAA: 0.312
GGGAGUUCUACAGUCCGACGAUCUUUAAGCUAAAAUGUUACUCCCUGUUUUAGUUUCUGAACUCUGACAGAUUGACAGGGACUUUGCUGGUGUAGUCUUUUUAUAGGUUUUAUAAACCACUUGAGCCUAUAUCUGGAAUUCUCGGGUGCCAA: 0.602
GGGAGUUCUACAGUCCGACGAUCGUAAGCCACACACCUGCCACUUAGCCAGAAUGCCCAGGAUCGCGUUGGUCACUGUUAUUUGCCUACUGCUGGAAGAAGGACAACCGCUGGCAAGGUAGCGUUCCCCAAUCUGGAAUUCUCGGGUGCCAA: 0.429
